{"data": "Results collected from several papers", "cell line": "HepG2", "note": "Protocols differ between the studies behind these lines."}
{"Compound": "CCC1=C(C)C(c2ccc[nH]2)=NC1=CNC12CC3CC(CC(C3)C1)C2", "observed": "cell growth or viability", "technique": "resazurin", "IC50": "4.5 µM"}
{"Compound": "CC1(C(=O)O)CCC2(C(=O)O)CCC3(C)C(=CCC4C5(C)CCC(O)C(C)(C)C5CCC43C)C2C1 (stereo not shown)", "observed": "cell growth or viability", "technique": "MTT", "time": "72 h", "IC50": "73.5 µM"}
{"Compound": "C#CCOc1ccc(C=NNC(=N)NN=Cc2ccc(OCC#C)cc2)cc1", "observed": "cytotoxicity", "technique": "resazurin", "time": "24 h", "setting": "10% FBS", "IC50": "> 200 µM"}
{"Compound": "O=C(C1CCN(c2nnnn2-c2ccccc2)CC1)N1CCCc2ccccc21", "observed": "cell growth or viability", "technique": "ATP luminescence", "time": "72 h", "IC50": "40 µM"}
{"Compound": "CC[C@@H](C)[C@@H]1NC(=O)[C@@H](Cc2ccccc2)NC(=O)[C@@H]2CCCN2C(=O)[C@H]([C@H](C)CC)NC(=O)[C@@H](Cc2ccccc2)NC(=O)[C@@H]2CCCN2C1=O", "observed": "cytotoxicity", "time": "48 h", "IC50": "> 100 µM"}
{"Compound": "COC(=O)C1=Cc2ccccc2S1(=O)=O", "observed": "cell growth or viability", "technique": "WST-1", "time": "24 h", "IC50": "32.2 µM"}
{"Compound": "CC1(C)[C@@H](O)CC[C@]2(C)[C@H]3CC=C4[C@@H]5C[C@](C)(CO)CC[C@]5(C(=O)O)CC[C@@]4(C)[C@]3(C)CC[C@@H]12", "observed": "cell growth or viability", "technique": "MTT", "time": "72 h", "IC50": "> 100 µM"}
{"Compound": "CCCCCCN=Cc1[nH]c(-c2ccc[nH]2)cc1OC", "observed": "cell growth or viability", "technique": "resazurin", "IC50": "26.7 µM"}
{"Compound": "C=C1CC[C@]2(C(=O)O)CC[C@]3(C)C(=CC[C@@H]4[C@@]5(C)CC[C@H](O)C(C)(C)[C@@H]5CC[C@]43C)[C@@H]2C1", "observed": "cell growth or viability", "technique": "MTT", "time": "72 h", "IC50": "51.9 µM"}
{"Compound": "COC1=CC(c2ccc[nH]2)=NC1=CNC1CCCCC1", "observed": "cell growth or viability", "technique": "resazurin", "IC50": "15 µM"}
{"note": "For quick reference, copied from above:"}
{"Compound": "CC1(C(=O)O)CCC2(C(=O)O)CCC3(C)C(=CCC4C5(C)CCC(O)C(C)(C)C5CCC43C)C2C1 (stereo not shown)", "observed": "cell growth or viability", "technique": "MTT", "time": "72 h", "IC50": "73.5 µM"}
